Measured values gathered from unrelated publications.
Each line is one published result; not all experiments were run side by side.
Organism: Pseudomonas aeruginosa

For `CCCCCCCC(=O)N[C@@H](CCN)C(=O)N[C@H](C(=O)N[C@@H](CCN)C(=O)N[C@H]1CCNC(=O)[C@H]([C@@H](C)O)NC(=O)[C@H](CCN)NC(=O)[C@H](CCN)NC(=O)[C@H](CCC(C)C)NC(=O)[C@@H](Cc2ccccc2)NC(=O)[C@H](CCN)NC1=O)[C@@H](C)O`, the MIC was less than 0.125 µg/mL (broth microdilution; PAO1, colistin-susceptible).
`C=C1NC(=O)C2C[S+]([O-])CC3NC(=O)C(CSC(C)C(NC(=S)C(Cc4cnc[nH]4)NC(=O)c4csc(C(C)NC(C)=O)n4)C(=O)N[C@H](CC(C)C(=O)NC(=O)CC(C(=O)O)NC(=O)C(C)NC3=O)C(=O)N2)NC(=O)[C@@H]2CCCN2C(=O)[C@@H](CC(C)C)NC1=O` (stereo partly shown) gave an MIC of greater than 32 µg/mL (bacterial growth; ATCC 27853).
`CC(C)C[C@H](NC(=O)[C@H](CCCCN)NC(=O)C1CCCC=CCCC(NC(=O)[C@H](CCCCN)NC(=O)[C@@H](N)CC(C)C)C(=O)N[C@@H](CCCCN)C(=O)N[C@@H](CC(C)C)C(=O)N[C@@H](CCCCN)C(=O)N2CCC[C@@H]2C(=O)NCC(=O)N[C@@H](CCCCN)C(=O)N[C@@H](CC(C)C)C(=O)N[C@@H](CCCCN)C(=O)N1)C(N)=O` (stereo partly shown) has an MIC of 8 µM (broth microdilution; ATCC 9027, Mueller-Hinton broth; 18 h, 37 °C).
`CC[C@H](C)[C@H](NC(=O)[C@@H](CCCNC(=N)N)NC(=O)[C@H](CCCNC(=N)N)NC(=O)[C@H](CC(N)=O)NC(=O)[C@H](Cc1c[nH]c2ccccc12)NC(=O)[C@H](CCCNC(=N)N)NC(=O)[C@@H]1CCCN1C(=O)[C@H](CCCNC(=N)N)NC(=O)[C@@H]1CCCN1C(=O)[C@H](CC(C)C)NC(=O)[C@H](Cc1ccc(O)cc1)NC(=O)[C@@H]1CCCN1C(=O)[C@@H]1CCCN1C(=O)[C@H](CCCCN)NC(=O)[C@H](CC(=O)O)NC(=O)[C@@H](N)C(C)C)C(=O)N[C@@H](Cc1ccc(O)cc1)C(=O)N[C@@H](CC(N)=O)C(=O)N[C@H](CCCNC(=N)N)C(N)=O` gave an MIC of 128 µg/mL (broth microdilution; DSM 1117; 18 h, 37 °C, 25% MHB2).
With `CC(C)C[C@@H]1NC(=O)[C@@H](CC(C)C)NC(=O)[C@H](CCN)NC(=O)[C@@H](NC(=O)[C@H](CCN)NC(=O)[C@@H](NC(=O)CN=[N+]=[N-])[C@@H](C)O)CCNC(=O)[C@H]([C@@H](C)O)NC(=O)[C@H](CCN)NC(=O)[C@H](CCN)NC1=O` the MIC was 32 µM (broth microdilution; ATCC 27736, cation-adjusted Mueller-Hinton broth).
With `O=[N+]([O-])c1cc(Cl)c2cccnc2c1O` the MIC was 16 µg/mL (broth microdilution; multidrug-resistant clinical isolate).
`CN[C@H](CC(C)C)C(=O)N[C@H]1C(=O)N[C@@H](CC(N)=O)C(=O)N[C@H]2C(=O)N[C@H]3C(=O)N[C@H](C(=O)N[C@H](C(=O)O)c4cc(O)cc(O)c4-c4cc3ccc4O)[C@H](O)c3ccc(c(Cl)c3)Oc3cc2cc(c3O[C@@H]2O[C@H](CO)[C@@H](O)[C@H](O)[C@H]2O[C@H]2C[C@](C)(NCc3ccc(OCc4cn(CC(=O)N[C@H](C(=O)N[C@@H](CCN)C(=O)N[C@H]5CCNC(=O)[C@H]([C@@H](C)O)NC(=O)[C@H](CCN)NC(=O)[C@H](CCN)NC(=O)[C@H](CC(C)C)NC(=O)[C@@H](CC(C)C)NC(=O)[C@H](CCN)NC5=O)[C@@H](C)O)nn4)c(OC)c3)[C@H](O)[C@H](C)O2)Oc2ccc(cc2Cl)[C@H]1O` has an MIC of 6 µM (broth microdilution; ATCC 25922, cation-adjusted Mueller-Hinton broth).
With `CC[C@H](C)[C@H](NC(=O)[C@@H](CCCNC(=N)N)NC(=O)[C@H](CCCNC(=N)N)NC(=O)[C@H](C)NC(=O)[C@H](Cc1c[nH]c2ccccc12)NC(=O)[C@H](CCCNC(=N)N)NC(=O)[C@@H]1CCCN1C(=O)[C@H](CCCNC(=N)N)NC(=O)[C@@H]1CCCN1C(=O)[C@H](CC(C)C)NC(=O)[C@H](Cc1ccc(O)cc1)NC(=O)[C@@H]1CCCN1C(=O)[C@@H]1CCCN1C(=O)[C@H](CCCCN)NC(=O)[C@H](CC(=O)O)NC(=O)[C@@H](N)C(C)C)C(=O)N[C@@H](Cc1ccc(O)cc1)C(=O)N[C@@H](CC(N)=O)C(=O)N[C@H](CCCNC(=N)N)C(N)=O` the MIC was greater than 128 µg/mL (broth microdilution; DSM 1117; 18 h, 37 °C, 25% MHB2).
With `CN[C@H](CC(C)C)C(=O)N[C@H]1C(=O)N[C@@H](CC(N)=O)C(=O)N[C@H]2C(=O)N[C@H]3C(=O)N[C@H](C(=O)N[C@H](C(=O)NCc4cn(CC(=O)N[C@H](C(=O)N[C@@H](CCN)C(=O)N[C@H]5CCNC(=O)[C@H]([C@@H](C)O)NC(=O)[C@H](CCN)NC(=O)[C@H](CCN)NC(=O)[C@H](CC(C)C)NC(=O)[C@@H](CC(C)C)NC(=O)[C@H](CCN)NC5=O)[C@@H](C)O)nn4)c4cc(O)cc(O)c4-c4cc3ccc4O)[C@H](O)c3ccc(c(Cl)c3)Oc3cc2cc(c3O[C@@H]2O[C@H](CO)[C@@H](O)[C@H](O)[C@H]2O[C@H]2C[C@](C)(N)[C@H](O)[C@H](C)O2)Oc2ccc(cc2Cl)[C@H]1O` the MIC was greater than 51 µM (broth microdilution; ATCC 10145, cation-adjusted Mueller-Hinton broth).
With `CC[C@H](C)[C@H](NC(=O)[C@H](CCCNC(=N)N)NC(=O)[C@@H](NC(=O)[C@@H](NC(=O)[C@H](CCCNC(=N)N)NC(=O)[C@H](CCCCN)NC(=O)[C@H](Cc1ccccc1)NC(=O)[C@H](CCCNC(=N)N)NC(=O)[C@H](CCCCN)NC(=O)[C@@H](NC(=O)[C@@H](N)CCCCN)[C@@H](C)CC)[C@@H](C)CC)C(C)C)C(=O)N[C@@H](CCCCN)C(=O)N[C@@H](Cc1ccccc1)C(=O)N[C@@H](CC(C)C)C(=O)N[C@@H](CCCNC(=N)N)C(=O)N[C@H](C(=O)N[C@H](C(=O)N[C@@H](CCCNC(=N)N)C(=O)N[C@@H](CCCNC(=N)N)C(N)=O)C(C)C)C(C)C` the MIC was 7.5 µg/mL (broth microdilution; 01).

A few entries again:
`C=C1NC(=O)C2C[S+]([O-])CC3NC(=O)C(CSC(C)C(NC(=S)C(Cc4cnc[nH]4)NC(=O)c4csc(C(C)NC(C)=O)n4)C(=O)N[C@H](CC(C)C(=O)NC(=O)CC(C(=O)O)NC(=O)C(C)NC3=O)C(=O)N2)NC(=O)[C@@H]2CCCN2C(=O)[C@@H](CC(C)C)NC1=O` (stereo partly shown) gave an MIC of greater than 32 µg/mL (bacterial growth; ATCC 27853).
